# Measured values collected from several papers.
# Every numbered part comes from another study and shows a few of its results, in no order.
# Sequence of UniProt P11802 (whole entry, looked up): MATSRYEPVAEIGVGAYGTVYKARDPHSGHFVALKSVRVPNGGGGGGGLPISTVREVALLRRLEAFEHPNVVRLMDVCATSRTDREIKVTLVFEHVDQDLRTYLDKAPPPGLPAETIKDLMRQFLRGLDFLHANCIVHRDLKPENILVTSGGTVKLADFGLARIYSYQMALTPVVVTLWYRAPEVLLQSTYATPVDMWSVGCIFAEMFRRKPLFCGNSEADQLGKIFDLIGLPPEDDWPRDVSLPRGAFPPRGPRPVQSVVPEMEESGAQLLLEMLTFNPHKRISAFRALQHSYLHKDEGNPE
# Sequence of UniProt P15056 (whole entry, unmodified, looked up): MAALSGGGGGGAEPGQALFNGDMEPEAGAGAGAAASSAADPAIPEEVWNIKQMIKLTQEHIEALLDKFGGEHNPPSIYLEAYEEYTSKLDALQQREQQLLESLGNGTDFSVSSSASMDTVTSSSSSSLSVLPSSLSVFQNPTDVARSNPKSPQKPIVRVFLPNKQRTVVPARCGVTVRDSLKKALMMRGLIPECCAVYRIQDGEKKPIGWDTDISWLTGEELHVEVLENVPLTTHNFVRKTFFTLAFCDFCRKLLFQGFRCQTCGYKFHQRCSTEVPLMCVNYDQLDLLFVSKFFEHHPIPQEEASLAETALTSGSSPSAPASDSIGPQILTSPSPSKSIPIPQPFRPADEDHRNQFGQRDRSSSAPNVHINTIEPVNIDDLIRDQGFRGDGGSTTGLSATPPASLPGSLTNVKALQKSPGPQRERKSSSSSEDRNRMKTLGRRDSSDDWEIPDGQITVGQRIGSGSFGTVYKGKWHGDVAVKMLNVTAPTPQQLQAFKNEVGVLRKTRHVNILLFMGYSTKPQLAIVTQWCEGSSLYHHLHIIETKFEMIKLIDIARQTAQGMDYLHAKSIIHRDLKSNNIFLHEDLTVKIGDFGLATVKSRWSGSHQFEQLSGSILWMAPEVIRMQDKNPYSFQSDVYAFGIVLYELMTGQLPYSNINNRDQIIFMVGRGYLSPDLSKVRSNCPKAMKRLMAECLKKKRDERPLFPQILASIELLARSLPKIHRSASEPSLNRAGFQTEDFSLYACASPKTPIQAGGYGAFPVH
# Sequence of UniProt O96017 (whole entry, looked up): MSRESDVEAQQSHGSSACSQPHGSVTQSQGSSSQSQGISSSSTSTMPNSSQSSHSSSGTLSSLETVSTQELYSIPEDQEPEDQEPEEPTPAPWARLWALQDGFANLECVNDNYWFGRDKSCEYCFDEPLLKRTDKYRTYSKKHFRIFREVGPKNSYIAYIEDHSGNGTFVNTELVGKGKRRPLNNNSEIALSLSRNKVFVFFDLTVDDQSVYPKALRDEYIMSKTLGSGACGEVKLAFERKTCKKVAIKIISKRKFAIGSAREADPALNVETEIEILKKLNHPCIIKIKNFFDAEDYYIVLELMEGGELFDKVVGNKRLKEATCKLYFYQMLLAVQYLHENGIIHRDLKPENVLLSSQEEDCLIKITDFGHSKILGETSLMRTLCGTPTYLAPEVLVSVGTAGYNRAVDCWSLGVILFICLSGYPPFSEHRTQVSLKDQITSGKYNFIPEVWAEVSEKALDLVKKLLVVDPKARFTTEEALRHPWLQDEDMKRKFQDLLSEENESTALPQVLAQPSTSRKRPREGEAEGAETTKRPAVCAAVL
# Sequence of UniProt Q99759 (whole entry, looked up): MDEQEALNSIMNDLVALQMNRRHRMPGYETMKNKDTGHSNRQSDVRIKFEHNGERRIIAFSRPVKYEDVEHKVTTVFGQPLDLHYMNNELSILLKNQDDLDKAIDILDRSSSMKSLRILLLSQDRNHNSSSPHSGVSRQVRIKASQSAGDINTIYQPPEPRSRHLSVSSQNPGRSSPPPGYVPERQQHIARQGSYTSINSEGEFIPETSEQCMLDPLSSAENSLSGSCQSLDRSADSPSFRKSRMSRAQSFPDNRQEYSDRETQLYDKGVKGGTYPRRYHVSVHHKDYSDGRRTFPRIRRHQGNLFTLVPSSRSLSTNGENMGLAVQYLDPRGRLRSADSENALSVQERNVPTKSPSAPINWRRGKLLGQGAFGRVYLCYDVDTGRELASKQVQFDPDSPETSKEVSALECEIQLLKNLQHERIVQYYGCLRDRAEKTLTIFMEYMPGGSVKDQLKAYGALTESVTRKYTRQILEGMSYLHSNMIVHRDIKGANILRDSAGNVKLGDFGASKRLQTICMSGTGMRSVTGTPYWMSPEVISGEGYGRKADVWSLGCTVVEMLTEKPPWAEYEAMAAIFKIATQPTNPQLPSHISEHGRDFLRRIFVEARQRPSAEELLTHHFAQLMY
# Sequence of UniProt P07333 (whole entry, looked up): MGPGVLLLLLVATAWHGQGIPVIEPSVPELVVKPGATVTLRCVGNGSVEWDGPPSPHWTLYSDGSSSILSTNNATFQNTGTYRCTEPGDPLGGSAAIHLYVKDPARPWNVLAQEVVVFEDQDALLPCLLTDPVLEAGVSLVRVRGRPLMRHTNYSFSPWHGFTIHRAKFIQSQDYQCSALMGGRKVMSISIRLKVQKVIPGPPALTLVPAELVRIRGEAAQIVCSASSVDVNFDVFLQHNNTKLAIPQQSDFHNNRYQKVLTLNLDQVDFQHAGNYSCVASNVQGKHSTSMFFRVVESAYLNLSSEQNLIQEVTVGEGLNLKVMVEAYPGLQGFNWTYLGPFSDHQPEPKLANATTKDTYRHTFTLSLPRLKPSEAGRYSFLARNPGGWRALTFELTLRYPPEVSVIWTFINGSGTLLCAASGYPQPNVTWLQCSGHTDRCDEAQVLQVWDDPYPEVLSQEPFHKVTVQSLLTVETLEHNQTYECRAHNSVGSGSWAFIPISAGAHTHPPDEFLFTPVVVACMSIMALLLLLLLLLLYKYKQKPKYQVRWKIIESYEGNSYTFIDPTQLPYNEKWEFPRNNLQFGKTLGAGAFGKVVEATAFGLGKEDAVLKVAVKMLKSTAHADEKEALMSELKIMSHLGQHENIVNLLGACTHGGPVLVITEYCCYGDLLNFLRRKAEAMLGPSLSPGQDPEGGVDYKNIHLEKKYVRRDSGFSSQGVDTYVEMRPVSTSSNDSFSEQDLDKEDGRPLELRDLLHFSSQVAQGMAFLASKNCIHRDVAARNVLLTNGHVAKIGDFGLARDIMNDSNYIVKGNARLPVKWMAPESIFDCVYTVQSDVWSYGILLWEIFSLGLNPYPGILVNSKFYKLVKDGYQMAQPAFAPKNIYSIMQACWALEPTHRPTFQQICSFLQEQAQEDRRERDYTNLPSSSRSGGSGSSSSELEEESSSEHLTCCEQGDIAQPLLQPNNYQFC
# Sequence of UniProt O95747 (whole entry, looked up): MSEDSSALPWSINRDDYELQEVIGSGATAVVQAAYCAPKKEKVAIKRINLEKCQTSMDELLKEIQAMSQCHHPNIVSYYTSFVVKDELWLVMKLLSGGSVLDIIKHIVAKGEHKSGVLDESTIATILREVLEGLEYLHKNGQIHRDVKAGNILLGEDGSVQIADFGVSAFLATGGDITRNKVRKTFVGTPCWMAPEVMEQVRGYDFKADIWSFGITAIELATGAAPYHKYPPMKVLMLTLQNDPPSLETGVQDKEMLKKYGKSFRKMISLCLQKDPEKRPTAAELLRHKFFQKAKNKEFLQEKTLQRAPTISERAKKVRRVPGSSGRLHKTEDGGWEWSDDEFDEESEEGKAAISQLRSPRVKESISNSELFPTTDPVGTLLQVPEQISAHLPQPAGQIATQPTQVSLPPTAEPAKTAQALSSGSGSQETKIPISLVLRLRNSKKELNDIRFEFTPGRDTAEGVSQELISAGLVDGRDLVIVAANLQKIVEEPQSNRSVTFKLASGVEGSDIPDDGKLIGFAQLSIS
# Sequence of UniProt Q9UIK4 (whole entry, looked up): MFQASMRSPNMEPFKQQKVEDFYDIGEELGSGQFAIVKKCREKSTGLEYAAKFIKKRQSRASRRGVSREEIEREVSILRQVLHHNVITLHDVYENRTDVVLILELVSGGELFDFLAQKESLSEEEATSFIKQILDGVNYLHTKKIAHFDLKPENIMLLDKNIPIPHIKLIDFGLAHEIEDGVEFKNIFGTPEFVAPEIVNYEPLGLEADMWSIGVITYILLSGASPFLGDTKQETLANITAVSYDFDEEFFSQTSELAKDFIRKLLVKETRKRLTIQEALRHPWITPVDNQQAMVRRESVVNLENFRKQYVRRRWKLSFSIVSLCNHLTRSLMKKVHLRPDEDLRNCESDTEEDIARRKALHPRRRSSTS
# Sequence of UniProt P07948 (whole entry, looked up): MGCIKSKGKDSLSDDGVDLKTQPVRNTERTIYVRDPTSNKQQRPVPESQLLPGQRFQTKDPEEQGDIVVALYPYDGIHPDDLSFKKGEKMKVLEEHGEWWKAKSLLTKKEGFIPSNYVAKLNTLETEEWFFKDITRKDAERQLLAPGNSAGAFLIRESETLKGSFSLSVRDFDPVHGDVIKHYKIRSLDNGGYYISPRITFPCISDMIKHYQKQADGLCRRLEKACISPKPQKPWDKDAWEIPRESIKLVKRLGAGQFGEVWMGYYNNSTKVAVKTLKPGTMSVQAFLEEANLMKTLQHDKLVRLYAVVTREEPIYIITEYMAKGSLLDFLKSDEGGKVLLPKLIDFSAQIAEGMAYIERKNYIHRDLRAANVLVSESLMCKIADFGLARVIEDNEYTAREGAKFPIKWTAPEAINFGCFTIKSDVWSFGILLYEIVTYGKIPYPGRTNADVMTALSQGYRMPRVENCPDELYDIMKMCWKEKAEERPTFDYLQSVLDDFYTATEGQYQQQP
# Sequence of UniProt Q00535 (whole entry, looked up): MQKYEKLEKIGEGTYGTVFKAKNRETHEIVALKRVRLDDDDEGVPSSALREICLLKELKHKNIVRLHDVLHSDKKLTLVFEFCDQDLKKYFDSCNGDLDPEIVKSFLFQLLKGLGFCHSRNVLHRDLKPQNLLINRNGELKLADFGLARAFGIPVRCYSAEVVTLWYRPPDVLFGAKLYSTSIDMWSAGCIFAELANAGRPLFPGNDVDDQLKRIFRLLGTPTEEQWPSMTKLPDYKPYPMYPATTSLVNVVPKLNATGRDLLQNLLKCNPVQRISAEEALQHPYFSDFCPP

# Series 1
# SMILES: FC(F)(F)c1ccc2c(c1)nc(-c1cccnc1)n2C1CC1
# Observed: cell-free assay
# Method: competition with immobilised ligand
# Concentration: 1 µM
target,remaining binding [%]
"Serine/threonine-protein kinase LATS1 (LATS1, Homo sapiens, UniProt O95835)",86
"Mitogen-activated protein kinase 3 (MAPK3, Homo sapiens, UniProt P27361)",100
"Macrophage colony-stimulating factor 1 receptor (CSF1R, Homo sapiens, UniProt P07333)",100
"Casein kinase I isoform gamma-2 (CSNK1G2, Homo sapiens, UniProt P78368)",100
"Tyrosine-protein kinase Fes/Fps (FES, Homo sapiens, UniProt P07332)",100
"Protein-tyrosine kinase 6 (PTK6, Homo sapiens, UniProt Q13882)",100
"Serine/threonine-protein kinase B-raf (BRAF, Homo sapiens, UniProt P15056, V600E)",100
"Ephrin type-A receptor 2 (EPHA2, Homo sapiens, UniProt P29317)",100
"Epidermal growth factor receptor (EGFR, Homo sapiens, UniProt P00533, G719C)",92
"Tyrosine-protein kinase JAK1, JH2 (JAK1, Homo sapiens, UniProt P23458)",85
"Serine/threonine-protein kinase B-raf (BRAF, Homo sapiens, UniProt P15056)",100
"Cyclin-dependent kinase 4 (CDK4, Homo sapiens, UniProt P11802)",100
"Ephrin type-B receptor 6 (EPHB6, Homo sapiens, UniProt O15197)",100
"Glycogen synthase kinase-3 alpha (GSK3A, Homo sapiens, UniProt P49840)",100
"Serine/threonine-protein kinase 35 (STK35, Homo sapiens, UniProt Q8TDR2)",100
"Proto-oncogene tyrosine-protein kinase receptor Ret (RET, Homo sapiens, UniProt P07949, V804M)",100
"Beta-adrenergic receptor kinase 1 (GRK2, Homo sapiens, UniProt P25098)",100

# Series 2
# SMILES: Nc1cccc(-c2cc3c(Oc4cccc(O)c4)ncnc3[nH]2)c1
# Observed: enzyme activity
# Action: inhibitor
# Concentration: 0.5 µM
# Reference: control
target,remaining activity
"Serine/threonine-protein kinase 10 (STK10, Homo sapiens, UniProt O94804)",45.8%
"Serine/threonine-protein kinase Nek2 (NEK2, Homo sapiens, UniProt P51955)",98%
"Death-associated protein kinase 1 (DAPK1, Homo sapiens, UniProt P53355)",89.1%
"Serine/threonine-protein kinase OSR1 (OXSR1, Homo sapiens, UniProt O95747)",119%
"Serine/threonine-protein kinase Chk2 (CHEK2, Homo sapiens, UniProt O96017)",75.8%
"Calcium/calmodulin-dependent protein kinase kinase 2 (CAMKK2, Homo sapiens, UniProt Q96RR4)",95.9%
"Protein kinase C beta type, isoform beta-I (PRKCB, Homo sapiens, UniProt P05771)",113%
"Inhibitor of nuclear factor kappa-B kinase subunit epsilon (IKBKE, Homo sapiens, UniProt Q14164)",88.1%
"Cyclin-dependent kinase 5, with p25 (CDK5, Homo sapiens, UniProt Q00535)",114%
"Inhibitor of nuclear factor kappa-B kinase subunit beta (IKBKB, Homo sapiens, UniProt O14920)",90.8%
"cAMP-dependent protein kinase catalytic subunit alpha (PRKACA, Homo sapiens, UniProt P17612)",92.3%
"Calcium/calmodulin-dependent protein kinase type II subunit delta (CAMK2D, Homo sapiens, UniProt Q13557)",99.8%
"TGF-beta receptor type-2 (TGFBR2, Homo sapiens, UniProt P37173)",42.6%
"G protein-coupled receptor kinase 3 (GRK3, Homo sapiens, UniProt P35626)",100%
"Cyclin-dependent kinase 4, with cyclin D1 (CDK4, Homo sapiens, UniProt P11802)",88.7%
"Death-associated protein kinase 2 (DAPK2, Homo sapiens, UniProt Q9UIK4)",106%
"Mitogen-activated protein kinase 9 (MAPK9, Homo sapiens, UniProt P45984)",111%
"Mitogen-activated protein kinase kinase kinase 3 (MAP3K3, Homo sapiens, UniProt Q99759)",96.4%
"TGF-beta receptor type-1 (TGFBR1, Homo sapiens, UniProt P36897)",101%
"Tyrosine-protein kinase Lyn, isoform B (LYN, Homo sapiens, UniProt P07948)",21.4%
"Protein kinase C alpha type (PRKCA, Homo sapiens, UniProt P17252)",95.6%
"STE20/SPS1-related proline-alanine-rich protein kinase (STK39, Homo sapiens, UniProt Q9UEW8)",119%

# Series 3
# Cell line: HaCaT
# Concentration: 100 µM
# Time: 36 h
Structure (SMILES),viability [%]
CCOc1ccccc1OCCN[C@H](C)Cc1ccc(OC)c(S(N)(=O)=O)c1,76.9
COCC(=O)Nc1c(I)c(C(=O)NCC(O)CO)c(I)c(C(=O)N(C)CC(O)CO)c1I (mixture of isomers),100
CCCc1ncc(C[n+]2ccccc2C)c(N)n1,79
CC(C)N(CCCCOCC(=O)NS(C)(=O)=O)c1cnc(-c2ccccc2)c(-c2ccccc2)n1,21.6
Cn1c(=O)cc(N2CCC[C@@H](N)C2)n(Cc2ccccc2C#N)c1=O,90.7
CO[C@H]1C[C@@H]2CC[C@@H](C)[C@@](O)(O2)C(=O)C(=O)N2CCCC[C@H]2C(=O)O[C@H]([C@H](C)C[C@@H]2CC[C@@H](OC(=O)C(C)(CO)CO)[C@H](OC)C2)CC(=O)[C@H](C)/C=C(\C)[C@@H](O)[C@@H](OC)C(=O)[C@H](C)C[C@H](C)/C=C/C=C/C=C/1C,7.11
Cn1c(=O)c2c(ncn2CC(O)CO)n(C)c1=O (stereo not drawn),93.8
OC[C@H]1O[C@@H](O[C@@H]2[C@@H](CO)OC(O)(CO)[C@H]2O)[C@H](O)[C@@H](O)[C@H]1O (mixture of isomers),95.9
CNCCC=C1c2ccccc2CCc2ccccc21,5.13

# Series 4
# SMILES: CC(C)n1cnc(-c2ccc(F)cc2)c1-c1ncc(C(=O)Nc2ccc(N3CCN(C)CC3)cc2)[nH]1
# Method: phase 2a trial
# Species: idiopathic pulmonary fibrosis patients
dose,notes,patients with leukocytosis [%]
30 mg once daily,grade 3 emergent event,0
60 mg once daily,grade 5 emergent event,0
all arms,grade 4 emergent event,0
30 mg once daily,grade 2 emergent event,0
30 mg once daily,grade 5 emergent event,0
60 mg once daily,grade 2 emergent event,0

# Some of these lines once more (series 2):
target,remaining activity
"Serine/threonine-protein kinase OSR1 (OXSR1, Homo sapiens, UniProt O95747)",119%
"Cyclin-dependent kinase 5, with p25 (CDK5, Homo sapiens, UniProt Q00535)",114%
"Mitogen-activated protein kinase kinase kinase 3 (MAP3K3, Homo sapiens, UniProt Q99759)",96.4%
"Protein kinase C alpha type (PRKCA, Homo sapiens, UniProt P17252)",95.6%
"Calcium/calmodulin-dependent protein kinase kinase 2 (CAMKK2, Homo sapiens, UniProt Q96RR4)",95.9%
"STE20/SPS1-related proline-alanine-rich protein kinase (STK39, Homo sapiens, UniProt Q9UEW8)",119%
